Measurements of several laboratories.
Compare with care: the assays were run in different laboratories. ± marks the error that the study gave.

N[C@@H]1c2cccnc2[C@H](OC(=O)N2CCC(n3c(=O)[nH]c4ncccc43)CC2)CC[C@H]1c1cccc(F)c1F — result for “apparent central volume”: 114 L (population PK model; human; oral, dose not given).
For Cc1nc(Nc2ncc(C(=O)Nc3c(C)cccc3Cl)s2)cc(N2CCN(CCO)CC2)n1, “apparent oral clearance” read 2250 ± 1110 mL/min/m² (human patients, plasma; 85 mg/m^2, day 8).
For O=C(O)CCC(=O)O.[2H]C([2H])([2H])Oc1cc(C)c2[nH]ccc2c1CN1CC[C@@H](C2CC2)C[C@H]1c1ccc(C(=O)O)cc1, “apparent clearance (CL/F)” read 1.66 L/h (healthy humans, fed; oral, 200 mg, single dose, high-fat meal).
CC[C@@H]1CN(C(=O)NCC(F)(F)F)C[C@@H]1c1cnc2cnc3[nH]ccc3n12 — result for “apparent peripheral volume (Vp/F)”: 68 L (population PK modelling; human; oral, dose not given, final model, outliers excluded).
C=CC(=O)Nc1cc(Nc2ncc(C(=O)OC(C)C)c(-c3cn(C)c4ccccc34)n2)c(OC)cc1N(C)CCN(C)C — result for “apparent central volume”: 2400 L (healthy human volunteers; oral, dose not given, capsule C vs capsules A and B).
CCCCC1=NC2(CCCC2)C(=O)N1Cc1ccc(-c2ccccc2S(=O)(=O)Nc2noc(C)c2C)c(COCC)c1 — result for “apparent clearance (CL/F)”: about 5 L/h (healthy adult human volunteers; oral, 400 mg single dose).
NC[C@@]1(CC(=O)O)[C@@H]2CC[C@H]3C[C@@H]2[C@@H]1C3: “apparent volume of distribution unbound” 63.3 L (human, normal renal function, plasma; dose not given, geometric mean).
C=CC(=O)N(C)CCOc1c(N)ncnc1-c1cc(F)cc(NC(=O)c2ccc(C3CC3)cc2F)c1C — result for “apparent clearance CL/F”: 280 L/h (human, whole blood; oral, 60 mg, single ascending dose).
For NC(=O)N1c2ccccc2CC(=O)c2ccccc21, “apparent volume of distribution” read 25.7 L (population PK modelling; human patients, plasma; oral, dose not given, joint parent-metabolite model).
Under “apparent peripheral volume”, CNC(=O)c1ccc(N2C(=S)N(c3ccc(C#N)c(C(F)(F)F)c3)C(=O)C2(C)C)cc1F is recorded as 45.9 L (population PK final model; human, male; oral, dose not given).
Under “apparent peripheral volume”, O=C(Nc1nc2cccc(-c3ccc(CN4CCS(=O)(=O)CC4)cc3)n2n1)C1CC1 is recorded as 35.5 L (population PK SIR median; human; oral, dose not given).
COc1cc(Nc2ncc3c(n2)-c2ccc(Cl)cc2C(c2c(F)cccc2OC)=NC3)ccc1C(=O)O: “apparent clearance (CL/F)” 3.91 L/h (population PK model; human cancer patients, plasma).
Under “apparent clearance CL/F”, C[C@@]1(c2cc(NC(=O)c3ccc(C#N)cn3)ccc2F)C=CSC(N)=N1 is recorded as 12.3 L/h (elderly humans, both sexes, plasma; oral, 30 mg single dose, mean).
For CC(C)(C)OC[C@@H]1C(=O)NCCN1C(=O)C[C@H](N)Cc1cc(F)c(F)cc1F, “apparent oral clearance at steady state” read 55.5 ± 12.8 L/h (human, plasma; oral, dose not given, 1, compound alone).
NC(N)=NCCC[C@@H](N)C(=O)N[C@@H](CCCN=C(N)N)C(=O)N1CCC[C@H]1C(=O)N1C[C@H](O)C[C@H]1C(=O)NCC(=O)N[C@@H](Cc1cccs1)C(=O)N[C@@H](CO)C(=O)N1Cc2ccccc2C[C@@H]1C(=O)N1[C@H](C(=O)N[C@@H](CCCN=C(N)N)C(=O)O)C[C@@H]2CCCC[C@@H]21: “apparent clearance (CL/F)” 15.4 L/h (popPK full model bootstrap median; human; subcutaneous).
C[C@H](Cn1cnc2c(N)ncnc21)OCP(=O)(O)O gave an apparent clearance of 43.2 L/h (population PK model; human, plasma; oral, reduced model estimate).
Cn1cc(-c2cn3nccc3c(-c3cnn([C@]4(CC#N)C[C@@H](C#N)C4)c3)n2)cn1: “apparent volume Vz/F” 2730 L (healthy humans fasted, plasma; 400 mg single dose, geometric mean).
For COc1cc(C(=O)NC2CCN(C)CC2)c(F)cc1Nc1ncc(C(F)(F)F)c(Oc2cccc3c2C(=O)N(C)C3)n1, “apparent oral clearance CL/F” read 266 mL/min (human patients, plasma; oral, 50 mg single dose, geometric mean).

Excerpt of the above:
For O=C(O)CCC(=O)O.[2H]C([2H])([2H])Oc1cc(C)c2[nH]ccc2c1CN1CC[C@@H](C2CC2)C[C@H]1c1ccc(C(=O)O)cc1, “apparent clearance (CL/F)” read 1.66 L/h (healthy humans, fed; oral, 200 mg, single dose, high-fat meal).
N[C@@H]1c2cccnc2[C@H](OC(=O)N2CCC(n3c(=O)[nH]c4ncccc43)CC2)CC[C@H]1c1cccc(F)c1F — result for “apparent central volume”: 114 L (population PK model; human; oral, dose not given).
